Results pooled from the literature.
A part holds a random share of what one study measured. Positions count from the first letter of the parent shown.

Sample 1
Target: Histone acetyltransferase KAT6A, winged helix 1, GST fusion (KAT6A, Homo sapiens, UniProt Q92794, residues 1-85)
Technique: protein binding microarray
Form: double-stranded DNA, one strand shown
Sample: in vitro
Concentration: not given
Notes: 8-mer, flanks averaged, mean of 2 arrays, mostly near background
Baseline: not given
Direction: higher = stronger binding
Construct (chain): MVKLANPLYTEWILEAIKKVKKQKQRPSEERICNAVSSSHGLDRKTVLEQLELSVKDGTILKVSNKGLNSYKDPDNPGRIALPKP
Sequence | E-score
GAACCGGC | 0.315
CCAATGGC | -0.0299
ATACGGAA | 0.165
CGGGGTTA | 0.331
CCGATTCA | -0.201
CCTTACAG | -0.0574
ATAGGACA | -0.136
AAAATGTT | -0.127

Sample 2
Target: Sal-like protein 4, full length isoform A (SALL4, Homo sapiens, UniProt Q9UJQ4, residues 1-1053)
Sequence of UniProt Q9UJQ4 (whole entry, looked up): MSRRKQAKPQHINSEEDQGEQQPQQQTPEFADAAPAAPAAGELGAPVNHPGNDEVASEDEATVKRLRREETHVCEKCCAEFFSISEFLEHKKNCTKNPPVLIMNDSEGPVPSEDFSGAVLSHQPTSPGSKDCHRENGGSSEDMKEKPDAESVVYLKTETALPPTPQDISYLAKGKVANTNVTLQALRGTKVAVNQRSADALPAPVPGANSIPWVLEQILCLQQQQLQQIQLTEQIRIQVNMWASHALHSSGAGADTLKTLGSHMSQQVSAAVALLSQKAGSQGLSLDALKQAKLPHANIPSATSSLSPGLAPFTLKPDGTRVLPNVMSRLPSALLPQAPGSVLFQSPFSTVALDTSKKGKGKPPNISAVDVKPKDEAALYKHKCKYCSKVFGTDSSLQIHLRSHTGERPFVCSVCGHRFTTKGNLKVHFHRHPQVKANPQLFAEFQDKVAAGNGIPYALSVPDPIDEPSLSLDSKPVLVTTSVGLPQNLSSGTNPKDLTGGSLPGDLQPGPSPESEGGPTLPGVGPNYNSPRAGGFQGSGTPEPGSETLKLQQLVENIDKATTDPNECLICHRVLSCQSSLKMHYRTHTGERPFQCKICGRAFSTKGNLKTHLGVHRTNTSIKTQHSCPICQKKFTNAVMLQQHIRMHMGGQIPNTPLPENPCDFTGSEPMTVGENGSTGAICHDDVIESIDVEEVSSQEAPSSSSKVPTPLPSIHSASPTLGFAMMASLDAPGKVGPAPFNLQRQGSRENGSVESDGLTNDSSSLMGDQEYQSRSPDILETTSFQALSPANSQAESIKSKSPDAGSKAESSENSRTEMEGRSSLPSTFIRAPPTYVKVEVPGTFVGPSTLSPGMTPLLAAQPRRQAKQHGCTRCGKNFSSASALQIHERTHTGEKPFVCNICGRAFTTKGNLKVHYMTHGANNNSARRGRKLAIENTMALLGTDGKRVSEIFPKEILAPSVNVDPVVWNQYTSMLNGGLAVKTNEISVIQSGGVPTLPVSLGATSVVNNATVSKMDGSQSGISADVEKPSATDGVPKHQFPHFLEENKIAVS
Technique: universal PBM
Form: double-stranded DNA, one strand shown
Sample: in vitro
Concentration: 600 nM
Notes: 8-mer, flanks averaged, mean of replicates
Direction: higher = stronger binding
Sequence | E-score
CGTGCGCC | -0.194
AAAAATAA | 0.397
GAGCTCAA | -0.122
GACTCGCA | -0.0329
CCGACCCG | -0.363
GATGCCAC | -0.278
GATATTTA | 0.394
AGGGAACT | -0.269

Further values, each from its own experiment
CCNE2: CCNE2, cyclin fold, Cln2 fusion (human)
P1: PKMYT1 docking peptide (human); SFEPRNLLSLFED; partner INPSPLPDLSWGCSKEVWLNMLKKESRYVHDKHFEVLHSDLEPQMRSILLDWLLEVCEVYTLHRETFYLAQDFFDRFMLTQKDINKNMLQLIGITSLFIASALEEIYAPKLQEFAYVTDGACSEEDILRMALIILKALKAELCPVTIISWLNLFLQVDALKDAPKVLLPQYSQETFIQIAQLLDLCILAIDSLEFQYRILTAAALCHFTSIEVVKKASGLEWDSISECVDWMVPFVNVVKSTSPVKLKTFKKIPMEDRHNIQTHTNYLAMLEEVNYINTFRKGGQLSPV
Substance | target | assay | test system | conditions | scale | measurement | value
P1 N6M | CCNE2 | yeast growth competition, sequencing | yeast | weak parent motif | baseline: not given, higher = stronger binding | normalised enrichment score | -0.722
PhoQ, residues 284 288 289 292 302 303 SLGVVW | PhoP, residues 12 14 15 18 19 AQALL (Escherichia coli, UniProt P23836) | Sort-seq, item: YFP reporter | E. coli | PhoQ-PhoP variant library, with: 10 µM Mg2+ | baseline: high Mg2+ state, higher = stronger signaling | fold induction | 16.8
P1 D13C | CCNE2 | yeast growth competition, sequencing | yeast | weak parent motif | baseline: not given, higher = stronger binding | normalised enrichment score | 0.534

Repeated from above (sample 1):
Sequence | E-score
CCAATGGC | -0.0299
AAAATGTT | -0.127
ATACGGAA | 0.165
